Experimental data collected from several papers.
Protocols differ between the studies behind these lines. “And” joins repeats or separate records; there may be more than shown. ± gives the spread as reported.

SMILES	assay	test system	conditions	scale	measurement	result
CC(=O)[CH](C(C)=O)[Pt-2]1([S+](C)C)[O]C(C)=CC(C)=[O+]1 (centres unmarked)		MCF7, BALB/c nude mice, xenograft	intravenous, 10 mg/kg, 30 days, single dose		tumour volume	115 ± 38 mm³
CN1CCc2cc(Nc3ncc(C(F)(F)F)c(NCc4cc[nH]n4)n3)ccc2C1		mice, GL261 glioma xenograft	oral, 100 mg/kg daily		tumour growth inhibition	70.3%
COC(=O)N[C@H]1CC[C@@H](Nc2cc(NCc3ccccc3F)n3ncc(C(C)C)c3n2)CC1		mice with HCT-116 xenograft	oral, 15 mg/kg twice daily, 14 days	reference: vehicle	tumour growth inhibition	84%
CCc1nnc(NS(=O)(=O)c2ccc(NC(=S)NC(=O)/C=C/c3ccc(F)cc3)cc2)s1		BE(2)-C xenograft, athymic nude mice	intraperitoneal, 20 mg/kg daily, 3 weeks, days 17 to 21	reference: vehicle	tumour volume	decreased
C[N+]1=C(C=CC=CC=C2N(CCCCCC(=O)NCCCC[C@H](NC(=O)[C@@H](CCC(=O)O)NC(=O)[C@@H](CCC(=O)O)NC(=O)[C@@H](CCC(=O)O)NC(=O)CCCCCNC(=O)C3CCC(CNC(=O)CC[C@H](NC(=O)N[C@@H](CCC(=O)O)C(=O)O)C(=O)O)CC3)C(N)=O)c3ccc4ccccc4c3C2(C)C)C(C)(C)c2c1ccc1ccccc21 (some centres unmarked)	FMT imaging	mice bearing PC3pip tumours, PC3pip tumour	1 nmol		tumour uptake	50.8 ± 2.6 pmol/g
O=C(Cc1ccc(F)cc1)NCCOc1ccc(-c2ccc(F)cc2)nn1		mice MC38 colon tumour	oral, 20 mg/kg daily, 21 days		tumour growth inhibition	45.2%
N#Cc1cccc(-c2ccc(=O)n(Cc3cccc(-c4ncc(OCC5CCN(CC(=O)N6CCN(c7ccc8c(c7)C(=O)N(C7CCC(=O)NC7=O)C8=O)CC6)CC5)cn4)c3)n2)c1 (centres unmarked)		mice, EBC-1 xenograft	intraperitoneal, 10 mg/kg once daily, 10 days		tumour growth inhibition	85.3%
O=C1N[C@](c2ccc(N3CCOCC3)cc2)(c2ccsc2)CC(O)=C1Sc1ccccc1Cl		C57BL/6 mice, B16-F10 allograft	oral or intraperitoneal, 100 mg/kg once daily		tumour growth	no inhibition
Cc1cc(N)c2ccccc2[n+]1CCCCCCCCCCCCCC[n+]1c(C)cc(N)c2ccccc21		NOD/SCID mice, NB12 neuroblastoma xenograft	intraperitoneal, 2.5 mg/kg every other day, 14 days	reference: vehicle	tumour weight reduction	50.6%
NC(N)=NCCCC(NC(=O)C1=C(CCNc2ccc3onc(-c4cc(Cl)c(O)cc4O)c3c2)C(O)C=C1)C(=O)O (centres unmarked)		BALB/c nude mice, HCT-116 xenograft	intraperitoneal, 5 and 10 mg/kg	reference: vehicle	tumour volume	decreased
O=C(Nc1ccc(C(F)(F)F)cc1Cl)c1cc(Cl)ccc1O		mice LuCaP sample A PDX	oral, 150 mg/kg	reference: vehicle	tumour growth inhibition	~85%
CCCCCCCCn1c(-c2cccnc2)nc(-c2ccc(C)cc2)c1-c1ccc(C)cc1		Ehrlich ascites carcinoma-bearing mice	intraperitoneal, 250 mg/kg every other day, day 26	reference: vehicle	tumour size reduction	~66%
CCNC(=O)c1noc(-c2cc(C(C)C)c(O)cc2O)c1NC(=O)CCN1CCOCC1		nude mice, GTL-16 xenograft	intraperitoneal, 90 mg/kg, daily ×5 per week for 3 weeks		tumour volume inhibition	61%
Clc1ccc2ccc3[n+](c2c1)[Ir-3]12([c]4ccccc4-3)([c]3ccccc3-c3ccc4ccc(Cl)cc4[n+]31)[n+]1ccccc1-c1cccc[n+]12.F[P-](F)(F)(F)(F)F		BALB/c mice, 4T1 allograft	intraperitoneal, 4 mg/kg daily, from day 13	reference: negative control	tumour volume	decreased
COC(=O)C1CN1S(=O)(=O)c1ccc2cc(C)ccc2c1 (centres unmarked)		mice, Lewis lung carcinoma	intraperitoneal, 100 mg/kg, 16 days		tumour growth inhibition	58%
CCOc1cc(C(C)(C)C)ccc1C1=N[C@@H](c2ccc(Cl)cc2)[C@@H](c2ccc(Cl)cc2)N1C(=O)N1CCN(CC(=O)NCCOCCOCCOCCNC(=O)CN2CCN(C(=O)N3C(c4ccc(C(C)(C)C)cc4OCC)=N[C@@H](c4ccc(Cl)cc4)[C@H]3c3ccc(Cl)cc3)CC2=O)C(=O)C1		nude mice, A549 xenograft	intraperitoneal, 30 mg/kg twice daily, 21 days		tumour growth inhibition	52% and 52.4%
O=C(O)c1ccc(-c2nc(-c3cccc(C(F)(F)F)c3)cs2)cc1		NB-4 cells, xenograft mice	oral, 20 mg/kg once daily, 7 days		tumour growth inhibition	44%

Excerpt of the above:
SMILES	assay	test system	conditions	scale	measurement	result
N#Cc1cccc(-c2ccc(=O)n(Cc3cccc(-c4ncc(OCC5CCN(CC(=O)N6CCN(c7ccc8c(c7)C(=O)N(C7CCC(=O)NC7=O)C8=O)CC6)CC5)cn4)c3)n2)c1 (centres unmarked)		mice, EBC-1 xenograft	intraperitoneal, 10 mg/kg once daily, 10 days		tumour growth inhibition	85.3%
NC(N)=NCCCC(NC(=O)C1=C(CCNc2ccc3onc(-c4cc(Cl)c(O)cc4O)c3c2)C(O)C=C1)C(=O)O (centres unmarked)		BALB/c nude mice, HCT-116 xenograft	intraperitoneal, 5 and 10 mg/kg	reference: vehicle	tumour volume	decreased
